Measurements of several laboratories.
Compare with care: the assays were run in different laboratories. Several values in a cell are separate wells, animals, samples, runs or records. ± gives the spread as reported.
SLC6A9: Sodium- and chloride-dependent glycine transporter 1 (SLC6A9, Homo sapiens, UniProt P48067)
UniProt P48067, sequence (whole entry, looked up): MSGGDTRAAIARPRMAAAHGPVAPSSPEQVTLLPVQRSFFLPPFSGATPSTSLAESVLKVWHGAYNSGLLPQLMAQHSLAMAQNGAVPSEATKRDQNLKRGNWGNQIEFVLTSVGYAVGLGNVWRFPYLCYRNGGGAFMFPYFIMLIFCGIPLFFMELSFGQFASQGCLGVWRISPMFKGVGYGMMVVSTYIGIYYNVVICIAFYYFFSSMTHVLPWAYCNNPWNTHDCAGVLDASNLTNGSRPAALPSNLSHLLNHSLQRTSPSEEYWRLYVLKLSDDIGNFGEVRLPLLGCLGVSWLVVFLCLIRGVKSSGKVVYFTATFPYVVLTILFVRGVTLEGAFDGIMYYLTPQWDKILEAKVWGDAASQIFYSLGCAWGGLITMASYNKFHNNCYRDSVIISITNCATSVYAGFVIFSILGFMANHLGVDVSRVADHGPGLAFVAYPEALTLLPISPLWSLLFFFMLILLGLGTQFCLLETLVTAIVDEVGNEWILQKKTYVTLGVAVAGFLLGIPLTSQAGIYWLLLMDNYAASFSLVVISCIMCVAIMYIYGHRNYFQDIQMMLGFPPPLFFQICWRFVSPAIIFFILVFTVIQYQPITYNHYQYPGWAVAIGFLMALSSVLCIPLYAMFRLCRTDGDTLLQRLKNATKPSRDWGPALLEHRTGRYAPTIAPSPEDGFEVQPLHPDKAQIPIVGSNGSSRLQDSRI
Gria2/Glutamate receptor 3: Gria2/Glutamate receptor 3 (Rattus norvegicus, UniProt P19491+P19492)
UniProt P19491, sequence (whole entry, looked up): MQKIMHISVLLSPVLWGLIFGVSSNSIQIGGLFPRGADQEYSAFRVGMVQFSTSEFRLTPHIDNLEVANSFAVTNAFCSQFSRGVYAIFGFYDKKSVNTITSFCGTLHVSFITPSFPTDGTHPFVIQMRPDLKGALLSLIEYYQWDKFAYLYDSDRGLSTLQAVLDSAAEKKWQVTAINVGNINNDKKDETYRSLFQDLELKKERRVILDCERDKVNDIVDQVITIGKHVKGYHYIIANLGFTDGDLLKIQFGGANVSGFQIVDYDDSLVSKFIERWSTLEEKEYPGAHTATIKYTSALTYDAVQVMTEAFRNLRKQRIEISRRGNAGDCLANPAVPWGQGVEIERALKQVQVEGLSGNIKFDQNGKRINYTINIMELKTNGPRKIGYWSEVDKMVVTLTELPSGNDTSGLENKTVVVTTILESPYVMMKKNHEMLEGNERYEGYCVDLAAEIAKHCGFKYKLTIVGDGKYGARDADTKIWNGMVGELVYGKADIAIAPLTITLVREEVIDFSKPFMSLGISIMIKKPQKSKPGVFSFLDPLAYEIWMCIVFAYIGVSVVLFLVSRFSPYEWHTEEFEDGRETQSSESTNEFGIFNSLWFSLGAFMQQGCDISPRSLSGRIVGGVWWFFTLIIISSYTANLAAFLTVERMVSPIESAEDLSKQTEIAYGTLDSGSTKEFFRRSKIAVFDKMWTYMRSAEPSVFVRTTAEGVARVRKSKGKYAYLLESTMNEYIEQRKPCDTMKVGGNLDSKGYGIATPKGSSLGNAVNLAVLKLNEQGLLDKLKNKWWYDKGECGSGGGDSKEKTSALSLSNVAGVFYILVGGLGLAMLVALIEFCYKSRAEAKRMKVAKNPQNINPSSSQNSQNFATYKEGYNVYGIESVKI
UniProt P19492, sequence (whole entry, looked up): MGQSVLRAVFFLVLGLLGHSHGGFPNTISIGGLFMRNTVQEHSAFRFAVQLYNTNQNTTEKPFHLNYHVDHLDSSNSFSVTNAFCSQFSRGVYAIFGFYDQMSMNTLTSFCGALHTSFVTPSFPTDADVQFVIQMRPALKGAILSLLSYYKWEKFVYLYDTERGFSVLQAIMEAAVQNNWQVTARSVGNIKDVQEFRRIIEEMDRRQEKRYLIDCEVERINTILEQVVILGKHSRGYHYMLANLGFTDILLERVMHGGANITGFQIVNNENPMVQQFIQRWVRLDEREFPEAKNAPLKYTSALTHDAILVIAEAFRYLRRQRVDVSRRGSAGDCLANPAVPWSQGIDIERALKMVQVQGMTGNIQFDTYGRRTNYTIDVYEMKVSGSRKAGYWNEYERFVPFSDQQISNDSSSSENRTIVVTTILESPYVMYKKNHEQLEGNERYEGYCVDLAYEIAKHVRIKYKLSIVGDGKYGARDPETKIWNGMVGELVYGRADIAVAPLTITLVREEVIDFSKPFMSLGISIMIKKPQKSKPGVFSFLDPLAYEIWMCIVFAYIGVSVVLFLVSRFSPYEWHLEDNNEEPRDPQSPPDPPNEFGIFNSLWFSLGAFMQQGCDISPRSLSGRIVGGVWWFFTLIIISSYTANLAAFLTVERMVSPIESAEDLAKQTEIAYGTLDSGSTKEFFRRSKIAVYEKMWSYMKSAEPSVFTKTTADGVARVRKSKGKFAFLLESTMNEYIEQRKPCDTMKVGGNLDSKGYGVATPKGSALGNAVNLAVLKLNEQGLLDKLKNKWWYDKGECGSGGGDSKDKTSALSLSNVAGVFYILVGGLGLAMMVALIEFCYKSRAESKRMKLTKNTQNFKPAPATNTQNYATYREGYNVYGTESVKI
USP14: Ubiquitin carboxyl-terminal hydrolase 14 (USP14, Homo sapiens, UniProt P54578)
UniProt Q9FLB1, sequence (whole entry, looked up): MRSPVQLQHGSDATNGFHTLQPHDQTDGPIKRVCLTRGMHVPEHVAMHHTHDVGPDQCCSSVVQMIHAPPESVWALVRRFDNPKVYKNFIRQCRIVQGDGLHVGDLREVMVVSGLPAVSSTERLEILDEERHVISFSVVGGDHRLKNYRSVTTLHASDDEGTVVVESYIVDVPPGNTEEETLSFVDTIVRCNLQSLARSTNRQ
UniProt P54578, sequence (whole entry, looked up): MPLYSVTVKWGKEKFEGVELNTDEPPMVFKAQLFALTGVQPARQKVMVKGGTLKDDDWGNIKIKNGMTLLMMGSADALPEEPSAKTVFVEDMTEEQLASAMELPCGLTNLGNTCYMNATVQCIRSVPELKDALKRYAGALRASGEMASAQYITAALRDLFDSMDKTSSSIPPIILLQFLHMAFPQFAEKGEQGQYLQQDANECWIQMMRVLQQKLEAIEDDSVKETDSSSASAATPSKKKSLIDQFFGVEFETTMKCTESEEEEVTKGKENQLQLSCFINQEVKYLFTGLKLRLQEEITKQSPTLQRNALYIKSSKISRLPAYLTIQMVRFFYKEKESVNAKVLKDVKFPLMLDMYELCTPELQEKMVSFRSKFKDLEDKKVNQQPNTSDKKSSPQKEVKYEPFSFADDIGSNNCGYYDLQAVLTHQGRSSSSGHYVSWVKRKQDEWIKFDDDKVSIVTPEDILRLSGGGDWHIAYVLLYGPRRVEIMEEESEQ
UniProt P45983, sequence (whole entry, looked up): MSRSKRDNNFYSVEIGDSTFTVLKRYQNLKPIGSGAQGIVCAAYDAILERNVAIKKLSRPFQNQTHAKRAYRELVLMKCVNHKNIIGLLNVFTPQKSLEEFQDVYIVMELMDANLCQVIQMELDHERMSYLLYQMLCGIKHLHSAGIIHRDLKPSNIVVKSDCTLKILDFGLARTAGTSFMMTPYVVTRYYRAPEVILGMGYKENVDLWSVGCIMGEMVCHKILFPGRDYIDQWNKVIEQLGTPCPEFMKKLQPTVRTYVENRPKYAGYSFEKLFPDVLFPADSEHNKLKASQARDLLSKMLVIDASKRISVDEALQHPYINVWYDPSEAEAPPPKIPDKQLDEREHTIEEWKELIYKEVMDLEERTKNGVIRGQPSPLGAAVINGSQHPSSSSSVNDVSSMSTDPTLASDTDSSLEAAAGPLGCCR
UniProt Q9H4M9, sequence (whole entry, looked up): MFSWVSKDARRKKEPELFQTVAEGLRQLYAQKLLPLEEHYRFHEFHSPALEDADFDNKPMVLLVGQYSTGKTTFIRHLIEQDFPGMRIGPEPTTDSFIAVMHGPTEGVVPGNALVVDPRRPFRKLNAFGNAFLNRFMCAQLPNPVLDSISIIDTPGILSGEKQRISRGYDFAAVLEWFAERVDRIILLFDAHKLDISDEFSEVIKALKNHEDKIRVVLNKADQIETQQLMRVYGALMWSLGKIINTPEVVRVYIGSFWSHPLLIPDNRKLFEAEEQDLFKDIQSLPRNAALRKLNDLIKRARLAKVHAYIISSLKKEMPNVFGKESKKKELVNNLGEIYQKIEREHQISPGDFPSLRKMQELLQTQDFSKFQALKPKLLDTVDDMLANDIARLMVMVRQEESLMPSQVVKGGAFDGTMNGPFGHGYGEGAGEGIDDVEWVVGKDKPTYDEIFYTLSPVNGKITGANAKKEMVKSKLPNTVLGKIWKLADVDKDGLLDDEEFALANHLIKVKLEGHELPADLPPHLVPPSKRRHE
UniProt P51575, sequence (whole entry, looked up): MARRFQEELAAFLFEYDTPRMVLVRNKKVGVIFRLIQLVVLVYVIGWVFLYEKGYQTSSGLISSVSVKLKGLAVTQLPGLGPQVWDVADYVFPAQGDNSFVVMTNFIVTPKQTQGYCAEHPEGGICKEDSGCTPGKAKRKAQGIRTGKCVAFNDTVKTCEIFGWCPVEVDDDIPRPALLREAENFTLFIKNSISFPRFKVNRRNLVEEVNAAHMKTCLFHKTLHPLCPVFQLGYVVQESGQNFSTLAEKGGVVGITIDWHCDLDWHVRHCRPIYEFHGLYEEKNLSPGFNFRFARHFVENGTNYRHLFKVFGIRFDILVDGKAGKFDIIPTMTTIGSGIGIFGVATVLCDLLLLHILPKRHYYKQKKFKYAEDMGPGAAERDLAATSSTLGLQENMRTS
UniProt P20618, sequence (whole entry, looked up): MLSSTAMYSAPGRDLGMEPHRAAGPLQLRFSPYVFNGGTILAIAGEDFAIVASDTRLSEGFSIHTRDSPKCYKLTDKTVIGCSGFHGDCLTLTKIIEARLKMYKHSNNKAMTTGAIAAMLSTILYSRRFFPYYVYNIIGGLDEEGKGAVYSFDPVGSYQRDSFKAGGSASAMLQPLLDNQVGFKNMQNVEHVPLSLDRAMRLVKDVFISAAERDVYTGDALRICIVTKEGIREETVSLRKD
UniProt P40337, sequence (whole entry, looked up): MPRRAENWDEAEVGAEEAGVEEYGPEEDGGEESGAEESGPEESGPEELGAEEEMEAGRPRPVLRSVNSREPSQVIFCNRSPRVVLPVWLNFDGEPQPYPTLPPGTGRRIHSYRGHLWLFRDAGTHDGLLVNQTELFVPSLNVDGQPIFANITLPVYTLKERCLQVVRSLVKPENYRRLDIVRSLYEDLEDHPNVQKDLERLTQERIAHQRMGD

COC(=O)c1cc2cc3c(cc2oc1=O)N(CC(=O)NC(Cc1cccc(Cl)c1)C(=O)NCC=CS(=O)(=O)c1ccccc1)CCC3 (stereo not drawn) has a kinact/Ki of 49500 M⁻¹ s⁻¹ (Cathepsin S (CTSS, Homo sapiens, UniProt P25774); inhibitor; together with: Z-Phe-Arg-AMC).
CN(Cc1cc(C2CC2)on1)C(=O)c1cccc(-c2ccc3c(c2)CCO3)c1 gave a reaction rate of 0.000645 a.u. (Acetyl-CoA synthetase (Cryptococcus neoformans, UniProt J9VFT1); enzyme activity, inhibitor, coupled pyrophosphate; 7.81 µM; higher is more activity).
Under “isoTOP-ABPP competition ratio”, CCCCCC=CC=C1C(=O)C=CC1CC=CCCCC(=O)O (stereo not drawn) is recorded as 2.7 (Outer kinetochore KNL1 complex subunit ZWINT (ZWINT, Homo sapiens, UniProt O95229); competitive isoTOP-ABPP, measured: ZWINT cysteine peptide; proteome, soluble, MDA-MB-231; 100 µM, together with: iodoacetamide probe; reference: DMSO over compound-treated, higher = stronger cysteine blockade).
CCOC(=O)/C=C/c1nccn1CCOCCOC1(c2ccc(OC)cc2)c2ccccc2-c2ccccc21 has a remaining signal of 85.3% (SLC6A9; cell-free assay; 1 µM).
C=CC(=O)N1CCc2ccc(-n3c(=O)ccc4cnc5ccc(-c6cnn(C)c6)cc5c43)cc21 gave a remaining binding of 89% (Tyrosine-protein kinase ABL1, phosphorylated (ABL1, Homo sapiens, UniProt P00519, E255K); KINOMEscan, measured: (E255K)-phosphorylated; 1 µM; reference: control).
COC(=O)Cc1cc2c(cc1C(=O)c1ccccc1)OCO2: “current amplitude after recovery” 475 ± 43 pA (Gria2/Glutamate receptor 3; glutamate-evoked current, whole-cell patch clamp; HEK-293T; concentration not given, glutamate alone after washout, together with: glutamate).
For O=[N+]([O-])c1cc(Br)cc([N+](=O)[O-])c1NS(=O)(=O)c1ccc(Br)cc1, “HAB1 phosphatase activity” read 0.12 a.u. and 0.116 a.u. and 0.115 a.u. (PYL5, with HAB1 (Arabidopsis thaliana, UniProt Q9FLB1); antagonist; 160 µM, together with: ABA 5 µM; higher = more HAB1 activity).
CCOC(=O)c1c(C)oc2c1C(=O)C(=NO)c1ccccc1-2 has an inhibition of 35% (USP14; enzyme activity, inhibitor; 17 µM).
For COC(=O)[C@@]1(C)C=C(C(=O)Nc2cccc(C(=O)Nc3ccc(Nc4nccc(-c5cccnc5)n4)c(C)c3)c2)C(=O)CC1, the remaining activity was 0.99 (MAPK9 (Homo sapiens, UniProt P45984); enzyme activity, inhibitor; 8.363e-05 µM, unit not given; reference: vehicle).
[N-]=[N+]=N[C@]1(COP(=O)(O)OP(=O)(O)OP(=O)(O)O)O[C@@H](n2ccc(N)nc2=O)[C@@H](F)[C@@H]1O gave a Vmax of 0.29 product fraction (POLG (Homo sapiens, UniProt P54098); single-nucleotide incorporation, substrate).
Brc1ccccc1-c1cc(CN2c3ccccc3C=Cc3ccccc32)on1 has an apparent Vmax of 35.2 µmol/min (PPO3 (Agaricus bisporus, UniProt C7FF04); enzyme activity, inhibitor; concentration not given).
For CC(=O)N[C@@H](Cc1ccc(O)cc1)C(=O)N[C@@H](CC(N)=O)C(=O)N1CCC[C@H]1C(=O)N[C@@H](Cc1ccccc1)C(=O)N[C@@H](CCC(=O)O)C(=O)N[C@@H](CCC(=O)O)C(=O)NCC(=O)NCC(N)=O, the binding stoichiometry was 0.951 and 0.872 and 1.07 (EH domain-containing protein 1, EH domain (Homo sapiens, UniProt Q9H4M9); peptide binding, ITC; concentration not given, 150 mM NaCl).
O=C(O)Cc1cc2c(cc1C(=O)c1ccccc1)OCO2 — result for “current amplitude after recovery”: 512 ± 37 pA (Gria2/Glutamate receptor 3; glutamate-evoked current, whole-cell patch clamp; HEK-293T; concentration not given, glutamate alone after washout, together with: glutamate).
The inhibition of O=C(O)CCCN1C(=O)C(=C2SC(=S)N(CCCC(=O)O)C2=O)SC1=S is reported as 1% (USP14; enzyme activity, inhibitor; 17 µM).
With CNC(=N)NCCC[C@H](NC(=O)[C@H](CC(C)C)NC(=O)NNC(=O)[C@H](Cc1ccccc1)NC(=O)[C@@H](NC(=O)[C@H](CC(N)=O)NC(=O)[C@@H]1C[C@@H](O)CN1C(=O)[C@@H](Cc1ccc(O)cc1)NC(C)=O)[C@@H](C)O)C(=O)N[C@@H](Cc1c[nH]c2ccccc12)C(N)=O the Emax was 70.2% (KiSS-1 receptor (KISS1R, Homo sapiens, UniProt Q969F8, Q246A); inositol phosphate, agonist; HEK293).
Under “isoTOP-ABPP competition ratio”, CCCCCCCCCCCCC/C=C/C=O is recorded as 1 (Ketosamine-3-kinase (FN3KRP, Homo sapiens, UniProt Q9HA64); competitive isoTOP-ABPP; Ramos soluble proteome; 100 µM, together with: iodoacetamide probe; reference: DMSO over compound-treated, higher = stronger cysteine blockade).
For CC(=O)NCCN(c1nc(N2CC(Oc3ccccc3)C2)nc(N2CC3C(CCOc4cc(-c5scnc5C)ccc4CNC(=O)[C@@H]4C[C@@H](O)CN4C(=O)[C@@H](NC(=O)C4(F)CC4)C(C)(C)C)C3C2)n1)C(C)C (stereo partly drawn), “ternary complex formation” read 288% (VHL/BRD9, with Elongin B/C (Homo sapiens, UniProt P40337+Q9H8M2); native mass spectrometry; 5 µM, together with: BRD9 and VCB at 5 µM; reference: unbound BRD9).
With CC(C)[C@@H]1NC(=O)[C@H](Cc2ccccc2)NC(=O)CSC[C@@H](C(N)=O)NC(=O)[C@H](CCC(=O)O)NC(=O)[C@H](CO)NC(=O)[C@H](Cc2c[nH]c3cccc(Cl)c23)NC(=O)[C@H](C2CCCCC2)NC(=O)[C@H](C(C)C)NC(=O)[C@H](Cc2ccc(O)cc2)NC(=O)[C@H](CC(=O)O)NC(=O)[C@H](Cc2c[nH]c3ccccc23)NC(=O)[C@H](Cc2ccc(N)nc2)NC(=O)[C@H](Cc2c[nH]c3ccc(Cl)cc23)NC(=O)[C@H](CCC(=O)O)NC1=O the remaining activity was -0.2% (Interleukin-1 receptor-like 2 (IL1RL2, Homo sapiens, UniProt Q9HB29); SEAP reporter gene, antagonist; HEK-Blue IL-36R cells; 3.7 µM, 6 h, together with: IL-36 0.1 ng/mL; reference: untreated).
COC(=O)Cc1cc2c(cc1C(=O)c1ccc(Cl)cc1Cl)OCO2: “desensitization time constant” 1.8 ± 0.2 ms (Gria2/Glutamate receptor 3; glutamate-evoked current, whole-cell patch clamp; HEK-293T; concentration not given, weighted tau, 500 ms pulse, together with: glutamate).
O=C(Nc1cc(C(=O)Nc2ccc(S(=O)(=O)O)cc2S(=O)(=O)O)cc(C(=O)Nc2ccc(S(=O)(=O)O)cc2S(=O)(=O)O)c1)Nc1cc(C(=O)Nc2ccc(S(=O)(=O)O)cc2S(=O)(=O)O)cc(C(=O)Nc2ccc(S(=O)(=O)O)cc2S(=O)(=O)O)c1 gave a calcium influx of 0% and 2.55% (P2X purinoceptor 1 (P2RX1, Homo sapiens, UniProt P51575); antagonist, calcium influx; 10 µM, together with: submaximal α,β-methylene ATP; reference: ionomycin response).
N=C(N)NCCC[C@H](NC(=O)[C@@H]1CCCN1C(=O)[C@H](CCCNC(=N)N)NC(=O)[C@@H]1CCCN1C(=O)[C@H](CCCNC(=N)N)NC(=O)[C@@H]1CCCN1C(=O)[C@H](CCCNC(=N)N)NC(=O)[C@@H]1CCCN1C(=O)[C@H](CCCNC(=N)N)NC(=O)[C@@H]1CCCN1C(=O)[C@H](CCCNC(=N)N)NC(=O)[C@@H]1CCCN1C(=O)[C@H](CCCNC(=N)N)NC(=O)[C@@H]1CCCN1C(=O)[C@H](CCCNC(=N)N)NC(=O)[C@@H]1CCCN1C(=O)[C@H](CCCNC(=N)N)NC(=O)[C@@H]1CCCN1C(=O)[C@H](CCCNC(=N)N)NC(=O)[C@@H]1CCCN1C(=O)[C@H](CCCNC(=N)N)NC(=O)[C@@H]1CCCN1C(=O)[C@H](CCCNC(=N)N)NC(=O)[C@@H]1CCCN1C(=O)[C@H](CCCNC(=N)N)NC(=O)[C@@H]1CCCN1C(=O)[C@H](CCCNC(=N)N)NC(=O)[C@@H]1CCCN1C(=O)[C@H](CCCNC(=N)N)NC(=O)[C@@H]1CCCN1C(=O)[C@H](CCCNC(=N)N)NC(=O)[C@@H]1CCCN1C(=O)[C@H](CCCNC(=N)N)NC(=O)[C@@H]1CCCN1C(=O)[C@H](CCCNC(=N)N)NC(=O)[C@@H]1CCCN1C(=O)[C@H](CCCNC(=N)N)NC(=O)[C@@H]1CCCN1C(=O)[C@H](CCCNC(=N)N)NC(=O)[C@@H]1CCCN1C(=O)[C@H](CCCNC(=N)N)NC(=O)[C@@H]1CCCN1C(=O)[C@H](CCCNC(=N)N)NC(=O)[C@@H]1CCCN1C(=O)[C@H](CCCNC(=N)N)NC(=O)[C@@H]1CCCN1C(=O)[C@H](Cc1ccc(O)cc1)NC(=O)[C@H](CO)NC(=O)CN)C(=O)O — result for “radius of gyration”: 53.1 ± 2.31 Å (Nucleophosmin (NPM1, Homo sapiens, UniProt P06748); SANS P(r) analysis; 0.7 molar excess over NPM1, 25 °C).
With O=C(N[C@@H](Cc1coc2ccccc12)B(O)O)[C@@H]1C[C@H]2CC[C@@H]1O2 the reversibility was 68 ± 11.5% (Proteasome component C5/PSMB8 (Homo sapiens, UniProt P20618+P28062); inhibitor, jump dilution; 1 h).
N#CC(=Cc1cn(CC(=O)O)c2ccccc12)c1ccc(F)cc1 has an inhibition of 5% (USP14; enzyme activity, inhibitor; 17 µM).
For Cc1cnc2nc1Nc1cccc(c1)COC/C=C/COCc1cc(ccc1OCCN1CCOCC1)N2, the remaining binding was 94% (EGFR (Homo sapiens, UniProt P00533, del747-752/P753S); binding; 0.1 µM).
C[C@H](N)C(=O)O gave a remaining signal of 43.7% (SLC6A9; cell-free assay; 10 µM).
For C#CCOC(=O)[C@]1(C)C=C(C(=O)OC(C)(C)C)C(=O)CC1, “normalized kinase activity” read 0.88 and 1.01 (MAPK8 (Homo sapiens, UniProt P45983); enzyme activity, D-SENSOR; 4.938 µM, single replicate).
N=C(N)NCCS(=O)(=O)O: “normalised MST signal” -0.0634 (SLC6A6 (Homo sapiens, UniProt P31641, G62A); binding, microscale thermophoresis; 125 µM, room temperature, together with: 50 nM labelled protein; higher = more binding).
